Measured values gathered from unrelated publications.
Lines come from different studies, so protocols differ. ± gives the spread as reported.
SIRT5: NAD-dependent protein deacylase sirtuin-5, mitochondrial (SIRT5, Homo sapiens, UniProt Q9NXA8)
Chain of UniProt Q9NXA8 (whole entry, looked up): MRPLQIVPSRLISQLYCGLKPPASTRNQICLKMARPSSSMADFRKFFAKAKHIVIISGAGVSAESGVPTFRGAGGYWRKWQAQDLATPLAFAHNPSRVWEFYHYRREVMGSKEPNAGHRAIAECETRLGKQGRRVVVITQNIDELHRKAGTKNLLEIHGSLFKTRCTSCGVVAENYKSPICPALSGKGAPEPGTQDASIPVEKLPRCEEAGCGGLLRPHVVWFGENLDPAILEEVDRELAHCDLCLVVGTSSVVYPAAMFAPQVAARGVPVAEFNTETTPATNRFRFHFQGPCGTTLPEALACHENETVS
lasR: Transcriptional activator protein LasR (lasR, Pseudomonas aeruginosa, UniProt P25084)
Chain of UniProt P25084 (whole entry, looked up): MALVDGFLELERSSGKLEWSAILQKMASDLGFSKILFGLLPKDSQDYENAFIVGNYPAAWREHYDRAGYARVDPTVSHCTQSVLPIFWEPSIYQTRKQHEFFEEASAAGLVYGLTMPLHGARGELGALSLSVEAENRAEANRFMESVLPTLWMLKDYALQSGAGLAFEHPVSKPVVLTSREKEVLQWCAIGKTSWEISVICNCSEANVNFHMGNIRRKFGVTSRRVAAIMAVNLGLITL
Formate-nitrite transporter: Formate-nitrite transporter (Plasmodium falciparum, UniProt O77389)
Chain of UniProt O77389 (whole entry, looked up): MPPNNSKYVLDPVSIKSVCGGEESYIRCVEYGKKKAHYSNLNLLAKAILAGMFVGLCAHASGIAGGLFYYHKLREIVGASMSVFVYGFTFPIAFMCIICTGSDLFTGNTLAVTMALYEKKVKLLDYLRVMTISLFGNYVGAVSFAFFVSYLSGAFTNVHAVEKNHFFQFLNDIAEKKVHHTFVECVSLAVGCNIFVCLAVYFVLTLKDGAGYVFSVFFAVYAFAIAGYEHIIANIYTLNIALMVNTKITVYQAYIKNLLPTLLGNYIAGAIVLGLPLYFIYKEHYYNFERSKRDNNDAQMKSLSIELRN
blaNDM-1: Metallo-beta-lactamase type 2 (blaNDM-1, Klebsiella pneumoniae, UniProt C7C422)
Chain of UniProt C7C422 (whole entry, looked up): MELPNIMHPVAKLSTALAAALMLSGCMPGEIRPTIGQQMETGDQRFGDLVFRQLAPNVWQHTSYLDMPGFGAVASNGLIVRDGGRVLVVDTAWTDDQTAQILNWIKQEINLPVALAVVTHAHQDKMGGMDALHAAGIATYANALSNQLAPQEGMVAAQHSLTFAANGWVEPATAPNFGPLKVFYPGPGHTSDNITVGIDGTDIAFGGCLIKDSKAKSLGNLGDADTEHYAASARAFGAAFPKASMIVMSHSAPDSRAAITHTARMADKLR
Chain of UniProt P61073 (whole entry, looked up): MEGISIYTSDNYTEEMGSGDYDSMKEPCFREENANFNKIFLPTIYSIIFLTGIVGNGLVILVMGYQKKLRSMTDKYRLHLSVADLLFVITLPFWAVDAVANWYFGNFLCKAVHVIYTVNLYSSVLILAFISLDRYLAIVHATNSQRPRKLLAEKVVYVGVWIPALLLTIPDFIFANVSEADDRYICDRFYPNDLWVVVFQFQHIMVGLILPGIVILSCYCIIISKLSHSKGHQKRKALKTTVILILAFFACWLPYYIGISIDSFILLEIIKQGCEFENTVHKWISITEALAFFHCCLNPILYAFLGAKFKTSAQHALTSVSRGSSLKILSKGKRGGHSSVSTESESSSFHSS
Chain of UniProt P19492 (whole entry, looked up): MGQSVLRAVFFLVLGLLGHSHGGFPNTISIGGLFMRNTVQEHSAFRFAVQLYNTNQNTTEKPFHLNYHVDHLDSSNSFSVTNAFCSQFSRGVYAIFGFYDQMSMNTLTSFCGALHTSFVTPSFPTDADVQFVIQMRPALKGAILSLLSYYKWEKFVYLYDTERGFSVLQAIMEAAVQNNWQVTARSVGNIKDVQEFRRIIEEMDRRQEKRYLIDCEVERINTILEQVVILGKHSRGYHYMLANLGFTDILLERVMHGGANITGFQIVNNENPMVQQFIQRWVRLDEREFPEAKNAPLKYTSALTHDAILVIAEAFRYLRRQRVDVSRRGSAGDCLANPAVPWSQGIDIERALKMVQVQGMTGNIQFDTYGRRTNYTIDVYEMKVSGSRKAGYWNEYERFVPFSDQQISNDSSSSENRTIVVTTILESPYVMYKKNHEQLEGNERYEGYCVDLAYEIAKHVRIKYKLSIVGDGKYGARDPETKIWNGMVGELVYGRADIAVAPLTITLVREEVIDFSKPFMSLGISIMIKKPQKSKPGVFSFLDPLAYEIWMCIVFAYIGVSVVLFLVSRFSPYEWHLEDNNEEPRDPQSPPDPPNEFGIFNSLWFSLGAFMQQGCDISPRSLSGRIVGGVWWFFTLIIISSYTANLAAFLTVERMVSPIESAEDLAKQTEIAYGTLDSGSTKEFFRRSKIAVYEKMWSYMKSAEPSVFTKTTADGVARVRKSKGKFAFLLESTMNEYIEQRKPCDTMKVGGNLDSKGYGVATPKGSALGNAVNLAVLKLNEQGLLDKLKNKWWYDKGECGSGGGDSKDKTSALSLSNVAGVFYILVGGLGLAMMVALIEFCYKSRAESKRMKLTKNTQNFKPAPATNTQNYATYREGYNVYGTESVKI
Chain of UniProt Q9QUR6 (whole entry, looked up): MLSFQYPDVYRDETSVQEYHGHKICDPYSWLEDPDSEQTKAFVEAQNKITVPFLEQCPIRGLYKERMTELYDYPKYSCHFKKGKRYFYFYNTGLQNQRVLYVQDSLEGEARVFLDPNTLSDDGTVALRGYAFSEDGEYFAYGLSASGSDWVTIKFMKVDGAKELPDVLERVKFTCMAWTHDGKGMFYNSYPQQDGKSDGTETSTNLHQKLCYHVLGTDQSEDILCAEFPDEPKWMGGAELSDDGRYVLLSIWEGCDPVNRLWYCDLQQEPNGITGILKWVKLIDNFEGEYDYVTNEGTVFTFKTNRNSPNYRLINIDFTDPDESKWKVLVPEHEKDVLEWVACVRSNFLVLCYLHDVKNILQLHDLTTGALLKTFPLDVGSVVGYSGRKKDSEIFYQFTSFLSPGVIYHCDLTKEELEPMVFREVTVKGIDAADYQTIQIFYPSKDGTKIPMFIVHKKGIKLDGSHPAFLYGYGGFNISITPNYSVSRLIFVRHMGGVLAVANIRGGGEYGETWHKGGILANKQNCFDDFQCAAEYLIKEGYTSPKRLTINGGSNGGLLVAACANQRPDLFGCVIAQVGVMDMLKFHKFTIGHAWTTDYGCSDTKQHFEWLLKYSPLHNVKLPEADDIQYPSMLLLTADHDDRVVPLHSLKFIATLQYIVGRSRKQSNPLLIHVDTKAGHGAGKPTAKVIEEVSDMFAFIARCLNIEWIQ
Chain of UniProt P33261 (whole entry, looked up): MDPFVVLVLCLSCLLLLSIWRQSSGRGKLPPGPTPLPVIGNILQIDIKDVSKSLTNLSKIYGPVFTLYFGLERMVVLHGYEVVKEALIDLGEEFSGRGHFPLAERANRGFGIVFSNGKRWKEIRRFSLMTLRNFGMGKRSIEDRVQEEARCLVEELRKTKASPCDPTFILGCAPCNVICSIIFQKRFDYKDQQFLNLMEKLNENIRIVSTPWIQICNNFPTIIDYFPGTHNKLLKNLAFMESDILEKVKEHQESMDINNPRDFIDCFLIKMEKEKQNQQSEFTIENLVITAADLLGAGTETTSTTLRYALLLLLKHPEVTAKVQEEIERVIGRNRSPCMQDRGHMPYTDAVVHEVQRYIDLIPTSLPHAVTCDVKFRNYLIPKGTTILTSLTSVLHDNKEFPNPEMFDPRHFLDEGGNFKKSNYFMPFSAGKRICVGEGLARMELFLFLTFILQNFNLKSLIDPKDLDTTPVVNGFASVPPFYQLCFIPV
Chain of UniProt O55040 (whole entry, looked up): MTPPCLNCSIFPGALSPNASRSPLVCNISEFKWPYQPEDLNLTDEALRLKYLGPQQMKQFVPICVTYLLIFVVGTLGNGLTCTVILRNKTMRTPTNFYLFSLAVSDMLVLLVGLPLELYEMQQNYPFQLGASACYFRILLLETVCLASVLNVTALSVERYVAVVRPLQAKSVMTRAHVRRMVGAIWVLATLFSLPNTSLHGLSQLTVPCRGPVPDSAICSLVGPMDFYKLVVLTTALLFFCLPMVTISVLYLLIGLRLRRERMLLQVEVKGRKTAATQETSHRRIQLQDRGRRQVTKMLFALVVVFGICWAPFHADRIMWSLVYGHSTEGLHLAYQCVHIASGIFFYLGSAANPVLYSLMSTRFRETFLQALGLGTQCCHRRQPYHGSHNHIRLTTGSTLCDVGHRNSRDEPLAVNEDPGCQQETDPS
Chain of UniProt Q99436 (whole entry, looked up): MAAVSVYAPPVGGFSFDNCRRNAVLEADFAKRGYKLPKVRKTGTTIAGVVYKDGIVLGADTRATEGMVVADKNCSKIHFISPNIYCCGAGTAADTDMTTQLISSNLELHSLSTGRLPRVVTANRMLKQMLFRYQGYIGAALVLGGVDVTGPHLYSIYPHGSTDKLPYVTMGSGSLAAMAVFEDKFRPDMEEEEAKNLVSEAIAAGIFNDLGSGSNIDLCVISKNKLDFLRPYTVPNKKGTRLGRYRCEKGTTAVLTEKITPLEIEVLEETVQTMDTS
Chain of UniProt Q13043 (whole entry, looked up): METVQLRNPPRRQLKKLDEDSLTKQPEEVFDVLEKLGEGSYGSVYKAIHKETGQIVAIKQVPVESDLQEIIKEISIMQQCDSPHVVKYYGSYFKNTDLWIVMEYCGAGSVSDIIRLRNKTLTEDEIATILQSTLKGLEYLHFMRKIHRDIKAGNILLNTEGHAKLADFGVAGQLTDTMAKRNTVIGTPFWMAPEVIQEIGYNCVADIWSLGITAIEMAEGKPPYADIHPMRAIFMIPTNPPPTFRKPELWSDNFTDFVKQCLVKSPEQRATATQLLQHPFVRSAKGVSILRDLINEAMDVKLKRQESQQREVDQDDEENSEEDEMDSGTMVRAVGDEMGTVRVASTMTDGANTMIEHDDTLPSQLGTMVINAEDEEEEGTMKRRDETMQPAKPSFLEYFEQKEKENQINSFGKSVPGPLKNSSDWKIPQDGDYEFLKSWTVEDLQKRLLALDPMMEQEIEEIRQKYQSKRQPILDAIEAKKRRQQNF

| Structure (SMILES) | target | assay | test system | setting | IC50 |
| --- | --- | --- | --- | --- | --- |
| N=C(N)NCCC[C@H](NC(=O)[C@H](CCCCNC(=O)c1cncc(OS(=O)(=O)F)c1)NS(=O)(=O)c1cccc(F)c1)C(=O)NC1CCC1 | SIRT5 | inhibitor, fluorogenic |  | 0 h preincubation, non-tagged enzyme 150 nM, together with: NAD+ 500 µM | > 200000 nM |
| CCCCCC(=O)CC(=O)N[C@H]1CCOC1=O | lasR | reporter gene, antagonist | Escherichia coli, JLD271 with LasR plasmid | together with: OdDHL 2 nM | 140 nM |
| C#CCNC(=O)c1ccc(S(=O)(=O)N[C@@H](CCCCNC(=S)NC)C(=O)N[C@@H](CCCNC(=N)N)C(=O)N[C@@H](CC2CCCCC2)C(=O)N[C@H](CCCCN)C(=O)N[C@@H](CC2CCCCC2)C(N)=O)cc1 | SIRT2 (Homo sapiens, UniProt Q8IXJ6) | enzyme activity, inhibitor, fluorescence |  |  | 370 nM |
| O=C(C=C(O)C(F)(F)C(F)(F)F)c1ccc(NCc2ccc(F)cc2)nc1 | Formate-nitrite transporter | L-lactate transport, inhibitor, fluorescence | yeast | pH 6.8, together with: L-lactate 1 mM | 522 ± 83 nM |
| CSCC[C@H](NC(=O)[C@@H](NC(=O)[C@H](Cc1c[nH]cn1)NC(=O)CNC(=O)[C@H](Cc1c[nH]cn1)NC(=O)[C@@H]1CCCN1C(=O)[C@H](C)N)C(C)C)C(=O)N[C@H](C(=O)N[C@@H](CCC(=O)O)C(=O)N[C@@H](CC(C)C)C(=O)O)C(C)C | HLA class I histocompatibility antigen, A alpha chain, allele A*02:01 (Homo sapiens, UniProt P04439) | peptide-MHC binding, radioligand competition binding |  |  | > 70000 nM |
| COc1cc(C[C@H](C)[C@H](C)Cc2ccc3c(c2)OCO3)ccc1O | Prolyl endopeptidase (Mus musculus, UniProt Q9QUR6) | enzyme activity, inhibitor, fluorescence |  |  | > 100000 nM |
| Cc1ccc2c(n1)c(-c1cccc(S(C)(=O)=O)c1)c(C)n2C/C(F)=C/CN | CYP2C19 (Homo sapiens, UniProt P33261) | enzyme activity, inhibitor | human, liver microsomes |  | 350 nM |
| CC(C)(COP(=O)(O)OP(=O)(O)OC[C@H]1O[C@@H](n2cnc3c(N)ncnc32)[C@H](O)[C@@H]1OP(=O)(O)O)[C@@H](O)C(=O)NCCC(=O)NCCSCC(=O)N[C@@H](CO)C(=O)NCC(=O)N[C@@H](CCCNC(=N)N)C(=O)NCC(=O)N[C@@H](CCCCN)C(=O)NCCOCCOCC(=O)NCCCC[C@H](NC(=O)CC[C@@H]1NC(=O)[C@@H](CCCNC(=N)N)NC(=O)[C@H](CCCNC(=N)N)NC(=O)[C@@H](CCCNC(=N)N)NC(=O)[C@H](CCCNC(=N)N)NC(=O)[C@H](Cc2csc3ccccc23)NC(=O)[C@@H](Cc2ccccc2)NC(=O)[C@H](Cc2ccccc2)NC1=O)C(N)=O | NAA40 (Homo sapiens, UniProt Q86UY6) | enzyme activity, inhibitor, fluorescence |  |  | 130 nM |
| CCN(CCCCOc1ccc(CCC(=O)N2CCC(Cc3ccccc3)CC2)cc1OC)Cc1ccccc1 | Prothrombin (F2, Homo sapiens, UniProt P00734) | enzyme activity, inhibitor |  |  | > 100000 nM |
| Cc1ccsc1CNc1ccccc1OC1CC(=O)N1 (stereo not drawn) | Uncharacterized hydrolase SAUSA300_2518 (Staphylococcus aureus, UniProt Q2FDS6) | enzyme activity, inhibitor |  |  | > 50000 nM |
| CCCCCCCCCCCCCCCCCC(=O)NC[C@H]1CC[C@H](C(=O)N[C@@H](CCC(=O)NCCCOCCOCCOCCCNC(=O)COCC(=O)N[C@@H](Cc2ccc(O)cc2)C(=O)NC(C)(Cc2ccccc2)C(=O)N[C@@H](CC(C)C)C(=O)N[C@@H](CCCC)C(=O)N[C@@H](CCCNC(=N)N)C(=O)N2CCC[C@H]2C(=O)N[C@@H](CCCNC(=N)NC)C(=O)N[C@@H](CC(N)=O)C(N)=O)C(=O)O)CC1 (stereo partly drawn) | Neuromedin-U receptor 1 (Mus musculus, UniProt O55040) | ligand displacement, radioligand |  |  | 0.468 nM |
| O=C(C=C(O)C(F)(F)C(F)(F)C(F)(F)F)c1cccnc1 | Formate-nitrite transporter | L-lactate transport, inhibitor, fluorescence | yeast | pH 6.8, together with: L-lactate 1 mM | 118 ± 28 nM |
| O=C(Cc1ccccc1)N[C@H](C(=O)O)[C@@H]1N=C(C(=O)O)C(CS[C@H](Cc2ccccc2)C(=O)O)CS1 (stereo partly drawn) | Metallo-beta-lactamase type 2 (Serratia marcescens, UniProt P52699) | enzyme activity, inhibitor |  | together with: nitrocefin | 590 ± 60 nM |
| CNc1ccc(C(=O)C=C(O)C(F)(F)C(F)(F)F)cn1 | Formate-nitrite transporter | L-lactate transport, inhibitor, fluorescence | yeast | pH 6.8, together with: L-lactate 1 mM | 31 ± 5 nM |
| O=C(NCCCC[C@H](NS(=O)(=O)c1cccc(F)c1)C(=O)N[C@@H](Cc1c[nH]c2ccccc12)C(=O)NC1CCC1)c1cncc(OS(=O)(=O)F)c1 | SIRT5 | inhibitor, fluorogenic |  | 0 h preincubation, His-tagged enzyme 150 nM, together with: NAD+ 500 µM | 50000 ± 16000 nM |
| CC(C)C[C@H](NC(=O)[C@H](Cc1ccc(CN)cc1)NC(=O)[C@H](Cc1ccccc1)N=[N+]=[N-])C(=O)N[C@@H](CC1CCC2CCCCC2C1)C(=O)[C@@]1(C)CO1 (stereo partly drawn) | PSMB7 (Homo sapiens, UniProt Q99436) | inhibitor, competitive ABPP | Raji cell lysate | constitutive proteasome β2c | 233 nM |
| CCN(C)C(=O)Oc1ccccc1/C=C1\Cc2cc(OC)c(OC)cc2C1=O | CES1 (Homo sapiens, UniProt P23141) | enzyme activity, inhibitor |  |  | > 10000 nM |
| C#CCNC(=O)c1ccc([P+](CCCC(=O)N[C@@H](CCCCNC(=O)c2cncc(OS(=O)(=O)F)c2)C(=O)N[C@@H](CCCNC(=N)N)C(=O)NC2CCC2)(c2ccccc2)c2ccccc2)cc1 | SIRT5 | inhibitor, fluorogenic |  | 0 h preincubation, non-tagged enzyme 150 nM, together with: NAD+ 500 µM | > 200000 nM |

| Structure (SMILES) | target | assay | test system | setting | IC50 |
| --- | --- | --- | --- | --- | --- |
| NC(=O)c1ccc(N)nc1 | NNMT (Homo sapiens, UniProt P40261) | enzyme activity in cells, inhibitor |  |  | 2000 nM |
| COC(=O)Cc1cc2c(cc1C(=O)c1cccc(Br)c1)OCO2 | Gria2/Glutamate receptor 3 (Rattus norvegicus, UniProt P19491+P19492) | ion current, patch clamp |  |  | 5410 nM |
| CCCNc1ccc(C(=O)C=C(O)C(F)(F)C(F)(F)F)cn1 | Formate-nitrite transporter | L-lactate transport, inhibitor, fluorescence assay in yeast |  | together with: 1 mM L-lactate | 113 nM |
| O=C(NCc1cc(Br)cc(Br)c1OC(=O)c1ccccc1[N+](=O)[O-])c1ccccc1Cl | lasR | reporter gene, antagonist | Escherichia coli, JLD271 with LasR plasmid | together with: OdDHL 2 nM | no inhibition |
| O=C(C=C(O)C(F)(F)C(F)(F)Cl)c1cccnc1 | Formate-nitrite transporter | L-lactate transport, inhibitor, fluorescence | yeast | pH 6.8, together with: L-lactate 1 mM | 62 ± 7 nM |
| O=P(O)(O)C(Nc1cccc(Cl)c1Cl)P(=O)(O)O | polyphosphate kinase 2 (Cytophaga hutchinsonii, UniProt A0A6N4SMB5) | enzyme activity, inhibitor, HPLC |  | 30 min, 37 °C, together with: 0.04 mM ADP and 0.3 mM polyP | 262000 nM |
| CC[C@H](C)[C@@H]1NC(=O)[C@@H]2CCCN2C(=O)[C@@H](CS)NC(=O)[C@H](CC(C)C)NC(=O)[C@@H](CCCNC(=N)N)NC(=O)[C@@H](CCCNC(=N)N)NC(=O)C(C)(C)NC(=O)[C@@H]2CCCN2C1=O | blaNDM-1 | enzyme activity, inhibitor, absorbance |  |  | 2200 nM |
| O=C(CCCOc1cccc(Br)c1)N[C@H]1CCSC1=O | lasR | plasI-LVAgfp reporter, antagonist | PAO-JP2 pump-active | together with: OdDHL 150 nM | no inhibition |
| O=C(CCc1ccc(Br)cc1)N[C@H]1CCOC1=O | lasR | reporter gene, antagonist | Escherichia coli lasI-lacZ reporter | together with: 5 nM OdDHL | 270 nM |
| C=C1NC(=O)c2csc(n2)[C@H]([C@@H](C)O)NC(=O)[C@H](C)NC(=O)[C@H]([C@@H](C)CC)NC(=O)[C@H](CCCNC(=N)N)NC(=O)CNC(=O)[C@H](CCCNC(=N)N)NC(=O)[C@H]([C@@H](C)O)NC(=O)[C@H](CCCNC(=N)N)NC(=O)[C@H]([C@@H](C)CC)NC(=O)[C@H]([C@@H](C)O)NC(=O)[C@H](Cc2c[nH]c3ccccc23)NC(=O)c2ccc(-c3nc(C(=O)OC)cs3)nc2-c2csc1n2 | STK4 (Homo sapiens, UniProt Q13043) | enzyme activity, inhibitor, ADP detection |  |  | 120 nM |
| CC[C@H](C)[C@@H]1NC(=O)[C@@H]2CCCN2C(=O)[C@@H](CS)NC(=O)[C@H](Cc2ccc(O)cc2)NC(=O)[C@@H](CCCNC(=N)N)NC(=O)[C@@H](CCCNC(=N)N)NC(=O)[C@H](CCC(=O)O)NC(=O)[C@@H]2CCCN2C1=O | blaNDM-1 | enzyme activity, inhibitor, absorbance |  |  | 2930 nM |
| CC(C)C[C@@H](N)C(=O)NCC(=O)N[C@H](C)C(=O)N[C@H](CO)C(=O)N[C@H](Cc1c[nH]c2ccccc12)C(=O)N[C@H](Cc1c[nH]cn1)C(=O)N[C@H](CCCNC(=N)N)C(=O)N1CCC[C@@H]1C(=O)N[C@H](CC(=O)O)C(=O)N[C@H](CCCCN)C(=O)N[C@H](CCCCN)C(=O)N[C@H](CCCNC(=N)N)C(=O)NCCCCCC(=O)N[C@H](CCCCN)C(=O)N[C@H](CCCNC(=N)N)C(=O)N[C@H](CCCCN)C(=O)N[C@H](CCC(N)=O)C(=O)N[C@H](CCCNC(=N)N)C(=O)NCC(=O)N1CCC[C@@H]1C(=O)NCC(=O)N[C@H](CCCNC(=N)N)C(=O)N[C@H](C)C(=O)N[C@H](Cc1ccccc1)C(N)=O | CXCR4 (Homo sapiens, UniProt P61073) | cell migration, antagonist |  |  | 870 nM |
| O=C(NC1CCN(c2ncnc3[nH]cnc23)CC1)c1cccc(NS(=O)(=O)c2ccc(C(F)(F)F)cc2)c1 | N6-adenosine-methyltransferase catalytic subunit, with METTL14 (METTL3, Homo sapiens, UniProt Q86U44) | enzyme activity, inhibitor |  |  | > 10000 nM |
| CC(C)[C@@H]1NC(=O)[C@@H]2CCCN2C(=O)[C@@H](CS)NC(=O)[C@H](CCCCN)NC(=O)[C@H](CCCCN)NC(=O)[C@H](CC(=O)O)NC(=O)[C@H]2CCCN2C(=O)[C@@H]2CCCN2C1=O | blaNDM-1 | enzyme activity, inhibitor, absorbance |  |  | 25300 nM |
| Cc1ccc(CNC(=O)c2ccn3c(-c4ccc(C#N)cc4)cnc3c2)cn1 | Cytochrome P450 2C9 (CYP2C9, Homo sapiens, UniProt P11712) | enzyme activity, inhibitor |  |  | > 10000 nM |
| CC1(C)NC(=O)[C@@H](CCC(=O)O)NC(=O)[C@H](CCC(=O)O)NC(=O)[C@H](CCCN)NC(=O)[C@H](C(c2ccccc2)c2ccccc2)NC(=O)[C@@H]2CCCN2C(=O)[C@H]2CCCN2C(=O)[C@H](CC(N)=O)NC1=O | blaNDM-1 | enzyme activity, inhibitor, absorbance |  |  | 111000 nM |
| O=C(N[C@@H]1c2ccccc2C[C@H]1N1CCCC1)c1ccc(-c2ccnc3[nH]ccc23)nc1 | PRKACB (Homo sapiens, UniProt P22694) | enzyme activity, inhibitor |  |  | 0.8 nM |
| CSCC[C@@H]1NC(=O)[C@H](Cc2ccc(O)cc2)NC(=O)[C@@H](NC(=O)[C@H](C)N)CSC(=O)[C@H](C(C)C)NC(=O)[C@H](Cc2ccccc2)NC1=O | Histidine kinase AgrC (Listeria monocytogenes, UniProt A8E0G3) | agr signalling |  |  | 3460 nM |
